Published values of several laboratories.
Values joined by “and” are separate records of one study, mostly repeats; a detail may differ. ± marks the error that the study gave.
MKNK2: MAP kinase-interacting serine/threonine-protein kinase 2 (MKNK2, Homo sapiens, UniProt Q9HBH9)
Sequence of UniProt D0VWV4 (whole entry, looked up): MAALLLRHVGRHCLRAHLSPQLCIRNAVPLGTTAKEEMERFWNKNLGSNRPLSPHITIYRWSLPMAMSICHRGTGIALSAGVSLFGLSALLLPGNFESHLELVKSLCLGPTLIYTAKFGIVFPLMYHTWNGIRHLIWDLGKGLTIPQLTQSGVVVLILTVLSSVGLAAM
Sequence of UniProt A5GZW8 (whole entry, looked up): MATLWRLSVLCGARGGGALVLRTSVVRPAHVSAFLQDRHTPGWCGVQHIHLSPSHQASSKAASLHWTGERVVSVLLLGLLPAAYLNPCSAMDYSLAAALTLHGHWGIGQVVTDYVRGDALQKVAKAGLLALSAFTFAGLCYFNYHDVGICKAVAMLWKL
Sequence of UniProt Q007T0 (whole entry, looked up): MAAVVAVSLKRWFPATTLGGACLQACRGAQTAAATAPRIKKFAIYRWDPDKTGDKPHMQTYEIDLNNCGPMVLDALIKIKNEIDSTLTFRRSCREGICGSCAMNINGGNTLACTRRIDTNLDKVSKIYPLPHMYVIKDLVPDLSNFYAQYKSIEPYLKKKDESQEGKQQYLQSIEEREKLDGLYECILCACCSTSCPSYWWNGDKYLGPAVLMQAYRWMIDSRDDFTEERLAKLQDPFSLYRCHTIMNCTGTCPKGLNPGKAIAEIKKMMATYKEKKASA
Sequence of UniProt Q9HBH9 (whole entry, looked up): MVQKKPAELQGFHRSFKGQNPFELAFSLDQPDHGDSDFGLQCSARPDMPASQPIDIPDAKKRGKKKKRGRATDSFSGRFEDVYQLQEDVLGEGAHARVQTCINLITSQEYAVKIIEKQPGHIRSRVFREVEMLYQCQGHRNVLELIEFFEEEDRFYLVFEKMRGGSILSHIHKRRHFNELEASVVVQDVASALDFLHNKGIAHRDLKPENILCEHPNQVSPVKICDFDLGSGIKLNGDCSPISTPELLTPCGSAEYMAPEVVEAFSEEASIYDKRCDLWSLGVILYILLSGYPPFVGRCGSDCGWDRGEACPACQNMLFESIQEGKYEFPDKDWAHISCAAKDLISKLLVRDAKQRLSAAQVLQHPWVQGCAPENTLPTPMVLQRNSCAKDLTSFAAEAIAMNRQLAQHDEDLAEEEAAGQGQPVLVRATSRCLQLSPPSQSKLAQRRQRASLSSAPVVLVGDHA
Sequence of UniProt P0A988 (whole entry, unmodified, looked up): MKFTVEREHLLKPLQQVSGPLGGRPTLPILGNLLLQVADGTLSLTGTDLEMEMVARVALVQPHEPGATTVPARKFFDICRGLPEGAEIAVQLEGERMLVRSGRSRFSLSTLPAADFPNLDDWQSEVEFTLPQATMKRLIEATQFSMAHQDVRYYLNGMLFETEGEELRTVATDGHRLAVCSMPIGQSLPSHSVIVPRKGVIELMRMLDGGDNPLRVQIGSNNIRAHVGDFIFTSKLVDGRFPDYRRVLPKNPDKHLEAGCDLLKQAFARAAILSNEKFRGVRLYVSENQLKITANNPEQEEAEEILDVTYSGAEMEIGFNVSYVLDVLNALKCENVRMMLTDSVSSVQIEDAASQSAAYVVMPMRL
Sequence of UniProt P51617 (whole entry, looked up): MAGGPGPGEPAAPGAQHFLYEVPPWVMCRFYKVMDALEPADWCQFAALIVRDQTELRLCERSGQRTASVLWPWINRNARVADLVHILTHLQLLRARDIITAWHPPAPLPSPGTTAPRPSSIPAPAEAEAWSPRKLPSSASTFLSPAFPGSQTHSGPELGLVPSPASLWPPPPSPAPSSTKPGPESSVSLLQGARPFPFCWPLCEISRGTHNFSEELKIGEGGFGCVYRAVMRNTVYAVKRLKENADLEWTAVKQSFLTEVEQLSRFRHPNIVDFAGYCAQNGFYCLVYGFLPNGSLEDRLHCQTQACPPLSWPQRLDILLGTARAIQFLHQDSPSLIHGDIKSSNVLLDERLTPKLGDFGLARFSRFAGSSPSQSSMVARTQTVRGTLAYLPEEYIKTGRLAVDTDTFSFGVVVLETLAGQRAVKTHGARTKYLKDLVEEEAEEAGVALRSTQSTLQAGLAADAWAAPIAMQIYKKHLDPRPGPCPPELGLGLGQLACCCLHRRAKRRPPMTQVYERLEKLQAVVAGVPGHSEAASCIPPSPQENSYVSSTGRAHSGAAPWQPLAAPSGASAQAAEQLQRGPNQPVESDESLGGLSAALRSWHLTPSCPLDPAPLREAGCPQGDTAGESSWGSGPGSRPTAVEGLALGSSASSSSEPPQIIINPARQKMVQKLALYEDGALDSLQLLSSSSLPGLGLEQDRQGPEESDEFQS
Sequence of UniProt P33533 (whole entry, looked up): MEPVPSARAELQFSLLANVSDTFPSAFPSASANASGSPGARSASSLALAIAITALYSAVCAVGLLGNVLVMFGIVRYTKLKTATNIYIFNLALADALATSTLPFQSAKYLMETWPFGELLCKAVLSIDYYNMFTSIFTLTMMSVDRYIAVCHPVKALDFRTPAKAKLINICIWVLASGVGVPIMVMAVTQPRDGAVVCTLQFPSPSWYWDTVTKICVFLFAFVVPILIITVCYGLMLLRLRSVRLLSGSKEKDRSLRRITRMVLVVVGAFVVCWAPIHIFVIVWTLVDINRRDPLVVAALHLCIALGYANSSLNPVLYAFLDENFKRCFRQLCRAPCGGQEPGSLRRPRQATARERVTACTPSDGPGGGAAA
Sequence of UniProt P08908 (whole entry, looked up): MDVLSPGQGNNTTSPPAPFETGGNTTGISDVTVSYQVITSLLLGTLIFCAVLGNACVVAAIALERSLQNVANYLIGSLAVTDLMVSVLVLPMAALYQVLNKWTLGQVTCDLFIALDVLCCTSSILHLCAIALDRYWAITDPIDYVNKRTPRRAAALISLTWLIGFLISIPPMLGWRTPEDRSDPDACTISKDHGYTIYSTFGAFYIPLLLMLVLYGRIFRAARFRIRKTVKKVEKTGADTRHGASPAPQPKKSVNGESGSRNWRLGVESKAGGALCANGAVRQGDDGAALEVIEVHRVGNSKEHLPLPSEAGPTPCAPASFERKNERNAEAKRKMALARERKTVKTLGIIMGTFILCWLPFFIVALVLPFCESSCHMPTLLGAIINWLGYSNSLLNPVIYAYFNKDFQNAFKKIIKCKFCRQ
Sequence of UniProt P35367 (whole entry, looked up): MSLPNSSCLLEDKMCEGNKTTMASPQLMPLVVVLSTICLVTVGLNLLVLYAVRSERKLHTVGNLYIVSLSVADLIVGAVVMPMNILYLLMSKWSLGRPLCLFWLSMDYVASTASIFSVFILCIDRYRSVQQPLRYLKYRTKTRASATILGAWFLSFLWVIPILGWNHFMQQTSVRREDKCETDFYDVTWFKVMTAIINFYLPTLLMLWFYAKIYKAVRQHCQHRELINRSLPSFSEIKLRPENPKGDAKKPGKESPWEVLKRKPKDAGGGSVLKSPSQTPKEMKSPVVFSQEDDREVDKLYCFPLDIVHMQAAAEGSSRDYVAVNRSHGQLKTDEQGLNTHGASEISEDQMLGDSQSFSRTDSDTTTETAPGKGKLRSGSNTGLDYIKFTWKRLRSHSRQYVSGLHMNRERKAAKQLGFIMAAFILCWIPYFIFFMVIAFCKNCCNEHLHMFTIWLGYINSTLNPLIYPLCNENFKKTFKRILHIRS
Sequence of UniProt P54310 (whole entry, looked up): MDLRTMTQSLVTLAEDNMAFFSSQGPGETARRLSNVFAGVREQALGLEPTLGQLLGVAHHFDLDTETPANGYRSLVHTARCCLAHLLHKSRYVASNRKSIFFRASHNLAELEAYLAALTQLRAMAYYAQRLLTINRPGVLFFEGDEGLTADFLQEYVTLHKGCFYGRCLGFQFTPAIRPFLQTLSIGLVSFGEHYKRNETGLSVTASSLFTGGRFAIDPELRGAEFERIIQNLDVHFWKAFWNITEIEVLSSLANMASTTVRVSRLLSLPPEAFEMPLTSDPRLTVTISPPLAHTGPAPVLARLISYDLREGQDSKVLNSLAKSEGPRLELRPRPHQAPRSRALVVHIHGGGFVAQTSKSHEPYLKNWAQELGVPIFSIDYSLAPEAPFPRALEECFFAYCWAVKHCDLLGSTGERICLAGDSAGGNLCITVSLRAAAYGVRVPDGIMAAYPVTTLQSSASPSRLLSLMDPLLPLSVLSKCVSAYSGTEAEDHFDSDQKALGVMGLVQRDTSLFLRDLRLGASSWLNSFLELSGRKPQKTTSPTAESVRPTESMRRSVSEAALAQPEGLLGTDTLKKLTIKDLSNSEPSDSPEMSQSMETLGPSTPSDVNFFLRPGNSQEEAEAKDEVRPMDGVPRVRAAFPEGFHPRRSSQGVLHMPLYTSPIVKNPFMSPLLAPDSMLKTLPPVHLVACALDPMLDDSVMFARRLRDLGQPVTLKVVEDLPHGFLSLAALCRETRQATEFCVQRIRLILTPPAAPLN

For `CCCCCc1cc(O)cc(O)c1C(=O)O`, the Km was 37.4 ± 20.2 µM (uncharacterized protein (Cannabis sativa, UniProt A0A803QQQ8); substrate, LC-MS product formation; 30 °C, added: UDP-glucose 1 mM).
With `C[C@@H](O)[C@@H]1CN([C@H](Cc2ccc3ccccc3c2)CN2CCC[C@H]2CN2CCNC[C@@H]2CO)CCN1CCc1ccc(Cl)c(Cl)c1` the remaining binding was 91.5% (Oprd1 (Rattus norvegicus, UniProt P33533); radioligand binding; rat brain membranes; 500 nM, pH 7.5, 25 °C, added: 2 nM [3H]DPDPE).
`CCNC(=S)NN=Cc1c2ccccc2cc2ccccc12.Cc1ccc(C(C)C)cc1.[Cl-].[Cl-].[Ru+2]` has a binding constant of 6.41 ± 0.12 10⁴ M⁻¹ (Albumin (ALB, Homo sapiens, UniProt P02768); fluorescence titration, Scatchard; 296 K).
With `CCCO[C@H]1[C@H](O)[C@@H](N)[C@@H](O[C@H]2[C@H](O[C@@H]3O[C@H](CO)[C@@H](O[C@H]4O[C@@H](CN)[C@@H](O)[C@H](O)[C@H]4N)[C@H]3O)[C@@H](O)[C@H](N)C[C@@H]2N)O[C@@H]1CO` the specific binding was 3% (HRH1 (Homo sapiens, UniProt P35367); radioligand binding; 10 µM, 1% DMSO).
The reaction velocity of `CON(C(=O)c1cn(C)nc1C(F)F)C(C)Cc1c(Cl)cc(Cl)cc1Cl` (stereo not drawn) is reported as 0.0149 µM/s and 0.0147 µM/s (SDHD/SDHC/SDHB (Sus scrofa, UniProt A5GZW8+D0VWV4+Q007T0); enzyme activity, inhibitor, DCIP reduction; pig; 0.3 µM, added: DCIP 120 µM).
`C/C(=N\OCCCN1CCCCC1)c1ccc(C(F)(F)F)cc1` gave an activation of 4.54% (HTR1A (Homo sapiens, UniProt P08908); agonist, cAMP; 10 µM).
With `CC(C)[C@H]1NC(=O)C[C@H]2/C=C/CCSSC[C@@H](NC1=O)C(=O)N[C@H](Cc1cccc3ccccc13)C(=O)NCC(=O)O2` the inhibition was 0.7% (MKNK2; enzyme activity, inhibitor; 10 µM).
With `CC#CC(=O)NC[C@H](NC(=O)[C@H](CC1CCCCC1)NC(=O)[C@H](CCC(N)=O)NC(C)=O)C(=O)N[C@@H](CC(C)C)C(=O)N[C@@H](Cc1ccccc1)C(=O)O` the ΔH was -9.7 kcal/mol (Beta sliding clamp (Escherichia coli, UniProt P0A988, H175G); isothermal titration calorimetry; 25 °C).
`CC(C)CC(O)(CC(C)C)c1cn(C(=O)N2CCCC2)nn1` gave an activity ratio of 1.39 (Lipe (Mus musculus, UniProt P54310); enzyme activity, inhibitor, competitive ABPP-SILAC; mouse T-cells; concentration not given, 4 h, treated in situ; relative to: DMSO).
`CN(C)[C@H]1C[C@@]23CC[C@@]4(O2)C(=CC[C@]2(C)[C@@H](c5ccc6ccncc6c5)CC[C@H]24)C=C3[C@@H](O)[C@@H]1O` has an inhibition of -3.4% (EPHB4 (Homo sapiens, UniProt P54760); ATP probe labelling, inhibitor, KiNativ profiling; 1 µM).
`CS(C)(=O)=Nc1ccc(-c2ccc(-c3nc4cc(O[C@@H]5CO[C@H]6[C@@H]5OC[C@H]6O)[nH]c4cc3F)cc2)cc1` gave an inhibition of 31% (IRAK1 (Homo sapiens, UniProt P51617); enzyme activity, inhibitor; 10 µM).
`O=C1NC(=O)c2c1c1cc(F)c[n+]3c1c1c2c2cc(O)ccc2[n]1[Ru-4]312([N]=C=S)[S+]3CC[S+]1CC[S+]2CC3` (stereo not drawn) has a remaining activity of 83% (MKNK2; enzyme activity; 100 nM, human enzyme, added: 10 µM ATP; relative to: untreated).

For quick reference, copied from above:
With `C[C@@H](O)[C@@H]1CN([C@H](Cc2ccc3ccccc3c2)CN2CCC[C@H]2CN2CCNC[C@@H]2CO)CCN1CCc1ccc(Cl)c(Cl)c1` the remaining binding was 91.5% (Oprd1 (Rattus norvegicus, UniProt P33533); radioligand binding; rat brain membranes; 500 nM, pH 7.5, 25 °C, added: 2 nM [3H]DPDPE).
